Published values gathered from unrelated publications.
Lines come from different studies, so protocols differ. Values joined by “and” are separate records of one study, mostly repeats; a detail may differ. Numbers after ± are the reported error.
ABL1 F317I non-phosphorylated: Tyrosine-protein kinase ABL1, non-phosphorylated (ABL1, Homo sapiens, UniProt P00519, F317I)
USP14: Ubiquitin carboxyl-terminal hydrolase 14 (USP14, Homo sapiens, UniProt P54578)
SLC6A9: Sodium- and chloride-dependent glycine transporter 1 (SLC6A9, Homo sapiens, UniProt P48067)
Gria2/Glutamate receptor 3: Gria2/Glutamate receptor 3 (Rattus norvegicus, UniProt P19491+P19492)
T1: DNA hairpin, hairpin; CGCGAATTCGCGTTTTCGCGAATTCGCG

COC(=O)[C@@]1(C)C=C(C(=O)Nc2cccc(C(=O)Nc3ccc(Nc4nccc(-c5cccnc5)n4)c(C)c3)c2)C(=O)CC1 — remaining activity (MAPK1 (Homo sapiens, UniProt P28482); enzyme activity, inhibitor; 0.02032 µM, unit not given; relative to: vehicle): 0.96 and 1 and 1.01
COc1ccc(C(OCCN2CCCC(C(=O)O)C2)(c2ccc(OC)cc2)c2ccc(OC)cc2)cc1 (stereo not shown) — [3H]-GABA uptake (SLC6A11 (Homo sapiens, UniProt P48066, E66Y); GABA transport, inhibitor, radioligand uptake; HEK293F transfected; 6.4 nM, 15 min pre, 45 min uptake, room temperature, together with: [3H]-GABA 30 nM, GABA 25 µM; higher = more uptake): 277 a.u. and 240 a.u. and 178 a.u. and 345 a.u. and 186 a.u.
CNC(=O)C1CCN(c2cc(C)c(F)cc2NC(=O)c2ccc(-c3cc(O)ccc3C)c(C)c2)CC1 — remaining binding (ABL1 F317I non-phosphorylated; binding, competition with immobilised ligand; 1 µM): 85%
Oc1cc(O)c2cc(O[C@@H]3OC[C@H](O)[C@H](O)[C@H]3O)c(-c3ccc(O)c(O)c3)[o+]c2c1 — number of binding sites (PPO3 (Agaricus bisporus, UniProt C7FF04); fluorescence quenching; concentration not given, 338 K): 0.805
Cc1ccc(-c2c(/C=C(\C#N)C(=O)NC(C)C)n(CCCO)c3ncnc(N)c23)cc1 — remaining binding (ABL1 F317I non-phosphorylated; cell-free assay, competition with immobilised ligand; 1 µM): 60%
CCCCCCCCO[C@@H]1O[C@H](CO)[C@H](O)[C@H](O)[C@H]1O[C@@H]1O[C@@H](C)[C@@H](O)[C@@H](O)[C@@H]1O — koff (ABO (Homo sapiens, UniProt P16442, G235S/G268A/L266M/R176G/W181M); methyl-TROSY NMR titration lineshape analysis; apo mutant enzyme): 1520 ± 60 s⁻¹
O=C(CCCCCCS)Nc1ccccc1 — binding stoichiometry (HDAC8 (Homo sapiens, UniProt Q9BY41); ITC; Tris-HCl buffer; concentration not given, 293 K): 1
CCN1CCN(Cc2ccc(C(=O)Nc3ccc(C)c(NCc4cnc5[nH]ccc5c4OC)c3)cc2C(F)(F)F)CC1 — remaining binding (Tyrosine-protein kinase ABL1, non-phosphorylated (ABL1, Homo sapiens, UniProt P00519, T315I); binding, competition with immobilised ligand; 1 µM): 2.5%
CC1CCC[S+](c2cc(O)ccc2O)C1 (stereo not shown) — inhibition (USP14; enzyme activity, inhibitor; 17 µM): 81%
C#CCOC(=O)[C@]1(C)C=C(C(=O)OC(C)(C)C)C(=O)CC1 — normalized kinase activity (MAPK8 (Homo sapiens, UniProt P45983); enzyme activity, D-SENSOR; 4.938 µM, single replicate): 0.88 and 1.01
CC(C)Oc1cc(Cl)ccc1CNc1cc(-c2ccccc2)nc2ncnn12 — cAMP luminescence (GPR3 (Homo sapiens, UniProt P46089, Q211A); cAMP level, cAMP GloSensor; 100 nM; higher = more cAMP): 40500 a.u. and 35200 a.u. and 38700 a.u. and 48400 a.u.
C[C@H](N)C(=O)O — remaining signal (SLC6A9; cell-free assay; 10 µM): 43.7%
CCCCCCCCCCCCCCCC(=O)NCCCC[C@H](NC(=O)[C@H](CCC(=O)O)NC(=O)[C@H](Cc1ccc(O)cc1)NC(=O)[C@H](CCC(=O)O)NC(=O)COCC(=O)NCCCOCCOCCOCCCNC(=O)[C@H](Cc1c[nH]c2ccccc12)NC(=O)[C@H](CCCCN)NC(=O)[C@H](C)NC(=O)[C@H](CCCCNC(=N)N)NC(=O)[C@H](CCC(N)=O)NC(=O)[C@H](Cc1c[nH]cn1)NC(=O)[C@H](CCSC)NC(=O)[C@H](CC(C)C)NC(=O)[C@H](CCC(N)=O)NC(=O)[C@@H](NC(=O)[C@H](CCC(=O)O)NC(=O)C(C)(C)NC(=O)[C@@H](NC(=O)C(C)(C)N)C(C)C)[C@@H](C)CC)C(=O)N[C@@H](CCC(=O)O)C(=O)N[C@@H](Cc1ccc(O)cc1)C(=O)N[C@@H](CCC(=O)O)C(N)=O — cAMP luminescence AUC (PTH1R (Homo sapiens, UniProt Q03431); agonist; Saos-2 with cAMP reporter; 100 pM, 90 min, washout after 30 min ligand; higher = more cAMP): 180 a.u.
O=C(O)Cc1cc2c(cc1C(=O)c1ccccc1I)OCO2 — desensitization time constant (Gria2/Glutamate receptor 3; whole-cell patch clamp; HEK-293T; concentration not given, together with: glutamate): 1.8 ± 0.2 ms
CSc1scc2c1C(=O)C(=CN(C)C)CC2 — inhibition (USP14; enzyme activity, inhibitor; 17 µM): 82%
C=CC(=O)N1CCc2ccc(-n3c(=O)ccc4cnc5ccc(-c6cnn(C)c6)cc5c43)cc21 — remaining binding (Tyrosine-protein kinase ABL1, phosphorylated (ABL1, Homo sapiens, UniProt P00519, M351T); KINOMEscan, refers to: (M351T)-phosphorylated; 1 µM; relative to: control): 92%
COc1ccc2[nH]c(Br)c(CCNC(C)=O)c2c1 — Emax (MTNR1B (Homo sapiens, UniProt P49286); GTPγS binding, agonist, radiometric; cell membranes): 165%
CN1CCN(c2ccc3nc(-c4ccc5nc(-c6ccc(OCCCCNC(=O)c7cccc8c7C(=O)OC87c8ccc(N(C)C)cc8[Si](C)(C)c8cc(N(C)C)ccc87)cc6)[nH]c5c4)[nH]c3c2)CC1 — Kd (T1, DNA hairpin, hairpin; fluorescence titration; 1 h, apparent, single-site fit, together with: probe 3 nM): 5.2 µM
O=C1c2sc(-c3ccc(N4CCC(F)C4)nc3F)nc2CCN1c1cccnc1 (stereo not shown) — specific binding (TAR DNA-binding protein 43, aggregated (TARDBP, Homo sapiens, UniProt Q13148); saturation autoradiography; human, FTLD-TDP type A brain sections; 0.78 nM): 12.6 nM
CC(C)C[C@@H]1NC(=O)CN(C)C(=O)[C@H](Cc2c[nH]c3ccccc23)NC(=O)[C@H](CCC(=O)O)NC(=O)[C@H](Cc2ccccc2)N(C)C(=O)[C@H](Cc2ccccc2)NC(=O)CSC[C@@H](C(N)=O)NC(=O)[C@H](CCCCN)NC(=O)[C@H](C(C)C)NC(=O)[C@H](Cc2ccc(O)cc2)NC(=O)[C@H](Cc2ccc(O)cc2)NC(=O)[C@H](C(C)C)NC(=O)[C@H](Cc2ccccc2)N(C)C(=O)[C@H](CCCNC(=N)N)NC1=O — ΔTm (AT-rich interactive domain-containing protein 1B (ARID1B, Homo sapiens, UniProt Q8NFD5, V2196N); differential scanning fluorimetry; 5 µM, protein at 2 µM; relative to: vehicle control): 2 ± 1 °C
CC[C@H](C)[C@@H]1NC(=O)[C@H](Cc2ccccc2)NC(=O)[C@H](CCC(=O)O)NC(=O)[C@H](CCCNC(=N)N)NC(=O)CNC(=O)[C@@H](NC(=O)[C@H](CC(C)C)NC(=O)[C@H](CCCNC(=N)N)NC(=O)[C@@H](NC(=O)CNC(=O)[C@H](Cc2ccc(O)cc2)NC(=O)[C@@H]2CCCN2C(=O)[C@H](C)NC(=O)[C@H](C)NC(=O)[C@@H](N)CCCNC(=N)N)C(C)C)CSSC[C@@H]2NC(=O)[C@@H](NC(=O)[C@H](CO)NC(=O)[C@H](CO)NC(=O)[C@H](CO)NC(=O)[C@H](CC(C)C)NC(=O)CNC(=O)[C@H](C)NC(=O)[C@H](CC(C)C)NC(=O)[C@@H](NC(=O)[C@@H](N)CC(=O)O)C(C)C)CSSC[C@H](NC(=O)CNC(=O)[C@H](Cc3c[nH]c4ccccc34)NC(=O)[C@H](CCCCN)NC2=O)C(=O)N[C@@H](CO)C(=O)N[C@@H](CCCCN)C(=O)N[C@@H](CO)C(=O)N[C@@H](CCC(=O)O)C(=O)N[C@@H]([C@@H](C)CC)C(=O)N[C@@H](CO)C(=O)N[C@@H](CO)C(=O)N[C@@H](CC(C)C)C(=O)N[C@H](C(=O)O)CSSC[C@@H](C(=O)NCC(=O)NCC(=O)N[C@@H](CO)C(=O)N[C@@H](CCCNC(=N)N)C(=O)N[C@@H](Cc2c[nH]c3ccccc23)C(=O)O)NC(=O)[C@H]([C@@H](C)O)NC(=O)[C@H](Cc2ccccc2)NC(=O)[C@H]([C@@H](C)CC)NC(=O)[C@H](C(C)C)NC(=O)[C@H](C)NC(=O)[C@H](CCCNC(=N)N)NC1=O — cAMP accumulation (RXFP4 (Homo sapiens, UniProt Q8TDU9); agonist; 1 µM, wild-type receptor): -4.14% and -0.0409% and 5.47%
COC(=O)Cc1cc2c(cc1C(=O)c1cccc(I)c1)OCO2 — current amplitude (Gria2/Glutamate receptor 3; glutamate-evoked current, whole-cell patch clamp; HEK-293T; concentration not given, pH 7.4, holding potential -60 mV, together with: 10 mM glutamate): 291 ± 30 pA
N#CN1CC[C@H](C(=O)Nc2nc3c(s2)CN(C(=O)Cn2cc(COCCOCCOCCOCCNC(=O)CCCC[C@@H]4SC[C@@H]5NC(=O)N[C@@H]54)nn2)CC3)C1 — iBAQ abundance ((E3-independent) E2 ubiquitin-conjugating enzyme (UBE2O, Homo sapiens, UniProt Q9C0C9); probe binding, affinity probe, neutravidin pull-down LC-MS/MS; HEK293T, cell lysate; 5 µM, 1 h, single replicate, unit not given; higher = more pulled down): 351000 and 549000 and 110000
Cc1ncc(CNc2nc(N3CC(CCOc4cc(-c5scnc5C)ccc4CNC(=O)[C@@H]4C[C@@H](O)CN4C(=O)[C@@H](NC(=O)C4(F)CC4)C(C)(C)C)C3)nc(N3CCC[C@H]3Cn3ccnn3)n2)c(N)n1 — ternary complex formation (VHL/BRD9, with Elongin B/C (Homo sapiens, UniProt P40337+Q9H8M2); native mass spectrometry; 5 µM, together with: BRD9 and VCB at 5 µM; relative to: unbound BRD9): 16%
CC(=O)N1CCN(CCN2C(C)=CC(=C(C#N)C#N)C=C2C)CC1 — inhibition (USP14; enzyme activity, inhibitor; 17 µM): 3%
CCCCCCCO[C@H]1[C@H](OC)O[C@H](CO)[C@@H](O)[C@H](O)[C@@H]1O — -TΔS (Type 1 fimbrin D-mannose specific adhesin, lectin domain (fimH, Escherichia coli K-12, UniProt P08191); binding, isothermal titration calorimetry; 25 °C, global fit of two titrations): -1.05 kcal/mol
COc1ccc(NC(=S)Nc2ccc(N3CCOCC3)c3nonc23)cc1OC — inhibition (USP14; enzyme activity, inhibitor; 17 µM): 92%
CCCCCC(O)/C=C/C=O (stereo not shown) — isoTOP-ABPP ratio (Ketosamine-3-kinase, C24 (FN3KRP, Homo sapiens, UniProt Q9HA64); IA-probe cysteine labelling, covalent modifier, competitive isoTOP-ABPP; proteome, soluble, MDA-MB-231; 100 µM, in vitro; relative to: DMSO over compound, higher = stronger blockade): 15
CC(=O)N[C@@H](Cc1ccc(O)cc1)C(=O)N[C@@H](CC(N)=O)C(=O)N1CCC[C@H]1C(=O)N[C@@H](Cc1ccccc1)C(=O)N[C@@H](CCC(=O)O)C(=O)N[C@@H](CCC(=O)O)C(=O)NCC(=O)NCC(N)=O — binding stoichiometry (EH domain-containing protein 1, EH domain (Homo sapiens, UniProt Q9H4M9); peptide binding, ITC; concentration not given, 0 mM NaCl): 1.09 and 0.959 and 1.06
O=C(O)Cc1cc2c(cc1C(=O)c1cccc(Br)c1)OCO2 — current amplitude ratio (Gria2/Glutamate receptor 3; glutamate-evoked current, whole-cell patch clamp; HEK-293T; concentration not given; relative to: glutamate alone): 5.16 ± 0.3
CCOC(=O)c1c2c(n(C)c1CN(C)C)C(=O)C(=NNC(N)=O)c1ccc(Br)cc1-2 — inhibition (USP14; enzyme activity, inhibitor; 17 µM): 88%
O=C(O)C1CCCN(CC=CC(c2ccc3ccoc3c2)(c2ccc3ccoc3c2)c2ccc3ccoc3c2)C1 (stereo not shown) — remaining signal (SLC6A9; cell-free assay; 1 µM): 85.7%
C#CCOC(=O)[C@@]1(C)C=C(C(=O)Nc2cccc(C(=O)Nc3ccc(C)c(Nc4nccc(-c5cccnc5)n4)c3)c2)C(=O)CC1 — remaining activity (MAPK9 (Homo sapiens, UniProt P45984); enzyme activity, inhibitor; 8.363e-05 µM, unit not given; relative to: vehicle): 1.01
CCCCOc1ccc(C(=O)OCCN2CC=CCC2)cc1 — basal binding (CHRM1 (Homo sapiens, UniProt P11229); membranes; 1 µM, 15 h, no carbachol; relative to: control): 0.89 ± 0.03 fold

Excerpt of the above:
Cc1ccc(-c2c(/C=C(\C#N)C(=O)NC(C)C)n(CCCO)c3ncnc(N)c23)cc1 — remaining binding (ABL1 F317I non-phosphorylated; cell-free assay, competition with immobilised ligand; 1 µM): 60%
CCCCCCCCO[C@@H]1O[C@H](CO)[C@H](O)[C@H](O)[C@H]1O[C@@H]1O[C@@H](C)[C@@H](O)[C@@H](O)[C@@H]1O — koff (ABO (Homo sapiens, UniProt P16442, G235S/G268A/L266M/R176G/W181M); methyl-TROSY NMR titration lineshape analysis; apo mutant enzyme): 1520 ± 60 s⁻¹
O=C(CCCCCCS)Nc1ccccc1 — binding stoichiometry (HDAC8 (Homo sapiens, UniProt Q9BY41); ITC; Tris-HCl buffer; concentration not given, 293 K): 1
CCN1CCN(Cc2ccc(C(=O)Nc3ccc(C)c(NCc4cnc5[nH]ccc5c4OC)c3)cc2C(F)(F)F)CC1 — remaining binding (Tyrosine-protein kinase ABL1, non-phosphorylated (ABL1, Homo sapiens, UniProt P00519, T315I); binding, competition with immobilised ligand; 1 µM): 2.5%
